Measurements collected from several papers.
Numbered parts are unrelated; each lists some results of a single study. Substitutions count along the parent as printed.

Series 1 — method: DHFR PCA, deep sequencing; sample: yeast; together with: (+)-ABA 2500 µM; baseline: wild-type fitted maximum; reading: higher = stronger binding
Target: ABI1, truncated, D143A, DHFR fusion (Arabidopsis thaliana)
Notes: methotrexate growth selection, single substitutions
Starting sequence: PYL1, truncated, DHFR fusion (Arabidopsis thaliana); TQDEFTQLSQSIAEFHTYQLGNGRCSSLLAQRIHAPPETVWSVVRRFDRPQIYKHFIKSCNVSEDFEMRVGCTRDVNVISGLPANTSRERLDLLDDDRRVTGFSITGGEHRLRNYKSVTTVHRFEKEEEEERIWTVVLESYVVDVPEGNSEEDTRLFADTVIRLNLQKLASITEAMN
For `H122P`, “relative binding score” read 22.3%.
Under “relative binding score”, `E129G` is recorded as 105%.
`N114Y` — result for “relative binding score”: 72.6%.
For `F47P`, “relative binding score” read 9.64%.
`R32E`: “relative binding score” 95.4%.

Series 2 — method: RNA Bind-n-Seq; form: RNA; sample: in vitro; concentration: 365 nM; baseline: no-protein control; reading: higher = stronger binding
Target: RNA binding protein fox-1 homolog 2, RRM domain, GST-SBP tag (RBFOX2, Homo sapiens, UniProt O43251-10, residues 100-194)
Notes: natural RNA segment, single round, ends assumed
All sequences stand within: GGGAGUUCUACAGUCCGACGAUC … UGGAAUUCUCGGGUGCCAA
Construct (chain): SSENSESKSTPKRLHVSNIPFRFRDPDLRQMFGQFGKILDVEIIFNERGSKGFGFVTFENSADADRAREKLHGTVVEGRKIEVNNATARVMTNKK
`AGACUGCCCUUGAUUUGCCCCUUGGUGCCAUGUAUUUCAGAGUUAAGGUCCUGCUUUCUCCACCUGGAACCAAUGUCGGCAAUACCUAGUCCCACUUCUCAAACUGGAGC`: “RBNS enrichment (R)” 0.194.
Under “RBNS enrichment (R)”, `ACUCUACUGCAAGACUUAAAUAGUUCAGUAUAAAUUGUCGUUUUUUUCUUGUGCUGACUAACUAUAAGCAUGAUCUUGUUAAUGCAUUUUUGAUGGGAAGAAAAGGUACA` is recorded as 7.83.
Under “RBNS enrichment (R)”, `AUUAAAAAUUGCAUUGUGUUACAGAGCUAGAAAAUUUUAUGUAUGAAAAACGAUAAUAGCCUUACACUGAGUACAAAUAAUACUUUAAGAGCAUGUGAAGAUGUGAUCAU` is recorded as 19.6.
Under “RBNS enrichment (R)”, `AUUUACUCCAGCAUCUAUUGUAUUUUAAAUUUCUACUCCAGUCCAAUGUAACUAUUUAGCCCUGGAUUAUACAUACUGUCCAAUUUUCAUUAAAUUUUUGUCUUAUAACU` is recorded as 0.857.
For `CCAUUUUCACACAACUUCUCUCUGUAUAGGCCUCUGAAAUAUCAAUAAGGCUAAAUAUUACUUUACACAGUAAGAUGUGAAAUUCACAAAAAGUAAACCAAACAAAACGA`, “RBNS enrichment (R)” read 0.496.

Series 3 — target: CCNE1, cyclin fold, Cln2 fusion (human); method: yeast growth competition, sequencing; sample: yeast; notes: strong parent motif; baseline: not given; reading: higher = stronger binding
Starting sequence: BRCA2 docking peptide (human); PSIKRNLLNEFDR
`PSIKRNLLNEFNR [D12N]` — result for “normalised enrichment score”: 1.8.
For `PSIKENLLNEFDR [R5E]`, “normalised enrichment score” read -0.485.
For `PSIKRNLLNELDR [F11L]`, “normalised enrichment score” read 0.598.
`PSIKRNNLNEFDR [L7N]`: “normalised enrichment score” 0.0464.
`ESIKRNLLNEFDR [P1E]` — result for “normalised enrichment score”: 2.71.
`PSIKRNLLNEFDP [R13P]` — result for “normalised enrichment score”: 0.601.

Further values, each from its own experiment
`PhoQ, residues 284 288 289 292 302 303 SACGEM` gave a fold induction of 1.19 (PhoP, residues 12 14 15 18 19 NQAHL (Escherichia coli, UniProt P23836); Sort-seq, measured: YFP reporter; E. coli; PhoQ-PhoP variant library, together with: 10 µM Mg2+; baseline: high Mg2+ state, higher = stronger signaling).

For quick reference, copied from above (series 3):
`PSIKRNLLNEFDP [R13P]` — result for “normalised enrichment score”: 0.601.
